Assay results pooled from the literature.
Parts stem from different laboratories: compare values within a part only.
Chain of UniProt P49760 (whole entry, looked up): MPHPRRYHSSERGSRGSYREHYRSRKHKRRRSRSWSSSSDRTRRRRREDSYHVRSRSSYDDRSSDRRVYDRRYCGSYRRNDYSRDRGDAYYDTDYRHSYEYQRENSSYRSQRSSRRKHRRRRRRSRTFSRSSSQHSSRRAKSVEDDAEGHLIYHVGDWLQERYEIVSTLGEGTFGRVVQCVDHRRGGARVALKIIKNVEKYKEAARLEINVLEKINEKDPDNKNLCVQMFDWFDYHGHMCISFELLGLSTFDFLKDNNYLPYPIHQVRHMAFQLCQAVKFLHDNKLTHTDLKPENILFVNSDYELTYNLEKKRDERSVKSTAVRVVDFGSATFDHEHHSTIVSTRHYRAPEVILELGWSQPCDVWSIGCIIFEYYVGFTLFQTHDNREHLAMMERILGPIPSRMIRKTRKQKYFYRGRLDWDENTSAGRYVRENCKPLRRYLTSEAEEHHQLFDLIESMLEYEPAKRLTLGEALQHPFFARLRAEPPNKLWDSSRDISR
Chain of UniProt P10721 (whole entry, unmodified, looked up): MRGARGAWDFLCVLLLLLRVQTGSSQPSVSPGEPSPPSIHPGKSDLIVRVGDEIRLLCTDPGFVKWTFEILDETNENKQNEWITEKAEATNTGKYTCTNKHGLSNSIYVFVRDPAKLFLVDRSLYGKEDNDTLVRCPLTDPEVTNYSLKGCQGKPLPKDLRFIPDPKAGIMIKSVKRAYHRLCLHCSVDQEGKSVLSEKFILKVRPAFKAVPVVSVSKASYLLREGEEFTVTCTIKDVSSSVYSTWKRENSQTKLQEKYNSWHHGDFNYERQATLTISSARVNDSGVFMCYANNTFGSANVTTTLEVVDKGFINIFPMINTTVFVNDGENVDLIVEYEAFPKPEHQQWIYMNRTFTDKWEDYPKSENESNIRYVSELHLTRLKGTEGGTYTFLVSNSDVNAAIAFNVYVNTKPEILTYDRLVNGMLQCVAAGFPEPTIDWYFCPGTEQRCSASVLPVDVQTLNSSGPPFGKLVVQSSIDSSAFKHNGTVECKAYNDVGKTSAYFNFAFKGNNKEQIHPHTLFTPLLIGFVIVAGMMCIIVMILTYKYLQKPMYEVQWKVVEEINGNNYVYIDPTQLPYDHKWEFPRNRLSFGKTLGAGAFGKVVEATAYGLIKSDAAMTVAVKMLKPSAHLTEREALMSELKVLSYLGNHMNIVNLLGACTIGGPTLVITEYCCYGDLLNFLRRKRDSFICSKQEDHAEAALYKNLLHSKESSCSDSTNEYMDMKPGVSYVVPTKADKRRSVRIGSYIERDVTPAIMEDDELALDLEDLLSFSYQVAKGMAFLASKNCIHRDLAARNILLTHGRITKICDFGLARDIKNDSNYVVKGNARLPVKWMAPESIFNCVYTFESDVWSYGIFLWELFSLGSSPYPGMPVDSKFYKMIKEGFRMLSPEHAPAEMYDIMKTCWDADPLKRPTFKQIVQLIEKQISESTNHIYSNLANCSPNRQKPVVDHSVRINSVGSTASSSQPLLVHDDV
Chain of UniProt P42684 (whole entry, looked up): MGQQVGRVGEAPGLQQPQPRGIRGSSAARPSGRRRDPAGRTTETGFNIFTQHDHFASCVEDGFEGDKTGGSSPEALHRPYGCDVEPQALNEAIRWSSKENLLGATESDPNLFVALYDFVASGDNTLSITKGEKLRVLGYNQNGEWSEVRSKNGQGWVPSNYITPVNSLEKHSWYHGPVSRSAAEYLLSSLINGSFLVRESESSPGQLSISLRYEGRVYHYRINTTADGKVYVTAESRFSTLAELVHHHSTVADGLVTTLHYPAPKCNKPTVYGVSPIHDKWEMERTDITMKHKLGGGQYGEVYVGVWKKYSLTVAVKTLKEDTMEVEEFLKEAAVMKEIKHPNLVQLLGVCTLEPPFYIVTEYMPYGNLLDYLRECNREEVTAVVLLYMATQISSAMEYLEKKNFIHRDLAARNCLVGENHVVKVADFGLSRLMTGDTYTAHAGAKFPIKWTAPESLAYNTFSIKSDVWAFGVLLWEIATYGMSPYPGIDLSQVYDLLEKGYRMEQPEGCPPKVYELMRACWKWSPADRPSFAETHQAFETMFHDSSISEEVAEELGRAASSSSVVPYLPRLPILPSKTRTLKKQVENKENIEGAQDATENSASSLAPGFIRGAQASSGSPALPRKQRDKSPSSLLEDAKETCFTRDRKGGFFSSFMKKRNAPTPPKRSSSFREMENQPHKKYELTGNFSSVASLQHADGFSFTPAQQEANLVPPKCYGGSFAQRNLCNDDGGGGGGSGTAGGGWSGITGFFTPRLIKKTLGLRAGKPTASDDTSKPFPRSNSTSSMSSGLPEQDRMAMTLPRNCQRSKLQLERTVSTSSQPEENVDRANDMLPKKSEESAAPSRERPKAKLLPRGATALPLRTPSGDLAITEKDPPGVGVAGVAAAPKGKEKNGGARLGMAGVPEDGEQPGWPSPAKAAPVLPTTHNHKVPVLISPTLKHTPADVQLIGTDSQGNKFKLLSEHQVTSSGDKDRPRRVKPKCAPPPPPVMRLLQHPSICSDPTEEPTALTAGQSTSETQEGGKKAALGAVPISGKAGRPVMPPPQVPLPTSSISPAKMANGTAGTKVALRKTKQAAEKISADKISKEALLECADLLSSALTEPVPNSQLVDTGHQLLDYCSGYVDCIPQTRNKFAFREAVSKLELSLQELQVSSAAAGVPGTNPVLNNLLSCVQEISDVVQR
Chain of UniProt Q8NEB9 (whole entry, looked up): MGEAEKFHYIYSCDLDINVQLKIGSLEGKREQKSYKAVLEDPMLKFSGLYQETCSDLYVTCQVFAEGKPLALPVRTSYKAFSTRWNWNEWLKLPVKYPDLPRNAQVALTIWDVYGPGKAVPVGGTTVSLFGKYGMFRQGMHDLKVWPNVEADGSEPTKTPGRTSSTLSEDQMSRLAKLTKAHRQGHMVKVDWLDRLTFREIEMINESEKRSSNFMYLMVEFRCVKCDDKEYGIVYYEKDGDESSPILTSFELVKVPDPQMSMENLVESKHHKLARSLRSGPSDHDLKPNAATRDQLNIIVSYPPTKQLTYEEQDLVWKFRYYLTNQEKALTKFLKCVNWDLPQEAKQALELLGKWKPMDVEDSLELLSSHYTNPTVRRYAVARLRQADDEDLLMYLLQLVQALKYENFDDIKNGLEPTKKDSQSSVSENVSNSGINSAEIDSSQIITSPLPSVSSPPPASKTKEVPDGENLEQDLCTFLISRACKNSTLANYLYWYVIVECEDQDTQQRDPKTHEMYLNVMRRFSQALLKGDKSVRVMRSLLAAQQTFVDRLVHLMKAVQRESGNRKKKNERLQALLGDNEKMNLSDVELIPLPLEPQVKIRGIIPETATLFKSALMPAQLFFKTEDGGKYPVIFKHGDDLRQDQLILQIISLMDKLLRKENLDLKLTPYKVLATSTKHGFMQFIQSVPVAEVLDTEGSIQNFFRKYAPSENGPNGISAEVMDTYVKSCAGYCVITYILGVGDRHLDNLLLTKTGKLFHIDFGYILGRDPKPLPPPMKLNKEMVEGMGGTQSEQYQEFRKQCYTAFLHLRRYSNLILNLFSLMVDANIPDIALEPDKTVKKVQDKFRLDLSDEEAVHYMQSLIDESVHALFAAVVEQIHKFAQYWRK

Series 1 — technique: protein-binding microarray; form: double-stranded DNA, one strand shown; medium: in vitro; concentration: 2200 nM top; notes: 60-bp whole probe; added: salmon DNA 0.4 mg/ml; relative to: random background probes; reading: higher = stronger binding; all sequences stand within: GCCTAGCAC … GTCTTGATTCGCTTGACGCTGCTG
Target: Interferon regulatory factor 7, full length, phosphomimetic (IRF7, Homo sapiens, UniProt Q92985, residues 1-503, S471D/S472D/S475D/S476D/S477D/S483D/S484D/S487D)
Chain of UniProt Q92985 (whole entry, unmodified, looked up): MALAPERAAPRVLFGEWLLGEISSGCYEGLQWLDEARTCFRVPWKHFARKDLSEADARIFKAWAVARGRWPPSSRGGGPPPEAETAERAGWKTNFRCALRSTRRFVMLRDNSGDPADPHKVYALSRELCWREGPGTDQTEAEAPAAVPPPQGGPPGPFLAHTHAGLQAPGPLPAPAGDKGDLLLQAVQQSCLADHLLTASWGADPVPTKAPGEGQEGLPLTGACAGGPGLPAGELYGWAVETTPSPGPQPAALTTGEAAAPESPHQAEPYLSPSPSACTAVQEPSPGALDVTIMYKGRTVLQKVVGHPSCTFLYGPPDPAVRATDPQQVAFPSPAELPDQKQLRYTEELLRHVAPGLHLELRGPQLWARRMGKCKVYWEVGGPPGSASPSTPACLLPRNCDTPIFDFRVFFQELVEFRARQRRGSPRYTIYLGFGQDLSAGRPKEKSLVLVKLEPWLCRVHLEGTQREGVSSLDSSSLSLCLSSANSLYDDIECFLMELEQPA
Sequence	fitted relative affinity
TTAGGTCTCCTATTGCTTTAGTGCTAG	0.534 z-score
GCAGATTGGGTTTCAGGGCTGTGCTAG	-0.0312 z-score
TTAGATCTCAGTATCGCTTAGTGCTAG	0.235 z-score
TTAGGTCTCCTACTGCTTGAGTGCTAG	0.283 z-score
TTAGATTTCGGCTATCGATTAGTGCTA	1.12 z-score
CCTTATTTAAGACCTATGCACGTGCTA	0.485 z-score
TTATATTTCAGTATCGATTAGTGCTAG	1.28 z-score
TCATGGATATATATCATACTGTGCTAG	0.667 z-score

Series 2 — Structure (SMILES): FC(F)(F)c1ccc2c(c1)nc(-c1cccnc1)n2C1CC1; concentration: 1 µM
target	test	scale	remaining binding [%]
RIOK3 (Homo sapiens, UniProt O14730)	cell-free assay, competition with immobilised ligand	–	93
FER (Homo sapiens, UniProt P16591)	cell-free assay, competition with immobilised ligand	–	100
STK32A (Homo sapiens, UniProt Q8WU08)	cell-free assay, competition with immobilised ligand	–	89
PIK3C3 (Homo sapiens, UniProt Q8NEB9)	cell-free assay, competition with immobilised ligand	–	100
CDK2 (Homo sapiens, UniProt P24941)	cell-free assay, competition with immobilised ligand	–	100
CDK14 (Homo sapiens, UniProt O94921)	cell-free assay, competition with immobilised ligand	–	100
KIT (Homo sapiens, UniProt P10721, D816H)	cell-free assay, competition with immobilised ligand	–	100
ABL2 (Homo sapiens, UniProt P42684)	cell-free assay, competition with immobilised ligand	–	100
Ribosomal protein S6 kinase alpha-3, C-terminal kinase domain (RPS6KA3, Homo sapiens, UniProt P51812)	cell-free assay, competition with immobilised ligand	–	71
DSTYK (Homo sapiens, UniProt Q6XUX3)	cell-free assay, competition with immobilised ligand	–	100
NEK6 (Homo sapiens, UniProt Q9HC98)	cell-free assay, competition with immobilised ligand	–	100
CLK2 (Homo sapiens, UniProt P49760)	cell-free assay, competition with immobilised ligand	–	100
EGFR (Homo sapiens, UniProt P00533, L858R/T790M)	cell-free assay, competition with immobilised ligand	–	100
SIK1 (Homo sapiens, UniProt P57059)	binder, KINOMEscan competition binding	relative to: DMSO	100
FLT3 (Homo sapiens, UniProt P36888, ITD)	cell-free assay, competition with immobilised ligand	–	100
ALK (Homo sapiens, UniProt Q9UM73, C1156Y)	cell-free assay, competition with immobilised ligand	–	100
IKBKE (Homo sapiens, UniProt Q14164)	cell-free assay, competition with immobilised ligand	–	100

Series 3 — technique: RNA Bind-n-Seq; form: RNA; medium: in vitro; concentration: 365 nM; relative to: no-protein control; reading: higher = stronger binding
Target: RNA binding protein fox-1 homolog 2, RRM domain, GST-SBP tag (RBFOX2, Homo sapiens, UniProt O43251-10, residues 100-194)
Notes: natural RNA segment, single round, ends assumed
All sequences stand within: GGGAGUUCUACAGUCCGACGAUC … UGGAAUUCUCGGGUGCCAA
Target sequence (chain): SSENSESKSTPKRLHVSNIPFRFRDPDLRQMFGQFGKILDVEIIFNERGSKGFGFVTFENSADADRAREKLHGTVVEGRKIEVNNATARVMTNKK
Sequence	RBNS enrichment (R)
GUGUCUCAAAGAAGGGUGGAAGUUCUCAUGUCUGUUAGCUAUUCAUAAGAAUGCUGUUUGCUGCAGUUCUGUGUCCUGUGCUUGGAUGCUUUUUUAUAAGAGUUGUCAUU	29.1
AAUUCAACGGAUAUAUAUUUAUCAAUGUAGACUUCUCUGUGAAGUCAAGGUUUAUUUUCACAUGAGUCCAGCUUGCAGCAAGUAAUCUUCAAAUAUUCCAGUAAGUUUUG	0.611
UAAGGAAAAUAAUAUUAUUUAAACUCGCUCCUAGUGUUUCUUUGUGGUCUGUGUCACCGUAUCUCAGGAAGUCCAGCCACUUGACUGGCACACACCCCUCCGGACAUCCA	0.535
UUUUUAUAUUUUUAACUCUUUAUUCUUGGAUGUAUAAAGUGAACUUUUUGGCUUCUGUAAGUAUGCUCUAUGCACCUCUAAUGUUUUAUCAUGUAUUUAUAUGUUGUACA	0.82
AGCCAGACCUCUGGGUUCCCAGGAAAUUAUCUUCCAGUUGAAUGACCAUUUACUUGAUACAAAUUGUACCUUUCUGUUUUUCUAGUCAGGUUGGUGGCCUGCAGGGACGC	0.71
ACCUUGGGUUUGUGCAUGUUUUCUGCUGGGUGGGAUCUGAGGGUGAUUUCUCUUUUACCUGUACAUAUGCUAAGUAAACAGAAUUUUAAAGGCAUGCAUUUCUUACAAUC	38.1
AUCACCGGUGGAGUCCCAGGGUGACAGUCCCAGCCUGCAUUUUUGGUGGAAAAUUAGAUGGAGUGAGAAGCCCCCUGCGGACUCCCAGCUGGAUGGAAAAGACAGGAGGA	0.803
UACUGGGGCACUGUUACCUCCAGAAGGCACUACUUCUAUCGUAGGGCGAGUCUAAUUGUUAGACAUUUCUUACUUAUAGUGAUUGGAUUCUGCUUUCCUAUGACUUCUGC	0.271

Further values, each from its own experiment
Compound	test	system	conditions	quantity	result
COc1ccc(C2CC(O)=Nc3c(C(=O)O)cn(-c4cc(F)cc(F)c4)c32)c(OC)c1OC (centres unmarked)	–	mouse, microsomes or S9	2 µM, 0.5 h	remaining compound	96%
CCOC(=O)[C@@H]1CSCC(=O)N[C@@H](CC)C(=O)N(C)[C@@H](C)C(=O)N[C@H](CC(C)C)C(=O)N2CCC[C@@H]2C(=O)N(CC)CC(=O)N[C@@H](CC(C)C)C(=O)N(C)[C@H](C)C(=O)N[C@@H](CC(C)C)C(=O)N1C	PRP chromatography estimate	1,9-decadiene/PBS	pH 7.4	logD	-0.388

Some of these lines once more (series 3):
Sequence	RBNS enrichment (R)
UAAGGAAAAUAAUAUUAUUUAAACUCGCUCCUAGUGUUUCUUUGUGGUCUGUGUCACCGUAUCUCAGGAAGUCCAGCCACUUGACUGGCACACACCCCUCCGGACAUCCA	0.535
UUUUUAUAUUUUUAACUCUUUAUUCUUGGAUGUAUAAAGUGAACUUUUUGGCUUCUGUAAGUAUGCUCUAUGCACCUCUAAUGUUUUAUCAUGUAUUUAUAUGUUGUACA	0.82
